{"data": "Measured values collected from several papers", "note": "Lines come from different studies, so protocols differ. Numbers after ± are the reported error."}
{"SMILES": "O=C(Nc1ccc(OC(F)(F)F)cc1)NC1CCC(Oc2ccc(C(=O)[O-])cc2)CC1.[Na+] (stereo not shown)", "test system": "simulated gastric fluid", "setting": "pH 1.0, 37 °C, equilibrium", "solubility": "0.047 ± 0.003 µg/mL"}
{"SMILES": "C=C(C)c1ccc(OCCc2cccc(F)c2)c(C(N)=O)c1", "test system": "PBS", "setting": "30 (unit not given), pH 7.4", "solubility": "25 µM"}
{"SMILES": "Cc1ccc([C@@H]2COC[C@H](c3ccc(C#N)cc3)N2)cn1", "assay": "shake-flask, LC-HRMS", "test system": "aqueous buffer", "setting": "16 h, pH 6.8", "solubility": "> 750 µM"}
{"SMILES": "CN(C)S(=O)(=O)NCC1CCOC2(CCN(C(=O)C3(c4ccccc4F)CCCC3)CC2)C1 (stereo not shown)", "setting": "pH 7.4", "solubility": "230 µM"}
{"SMILES": "COC1=CC(c2ccc[nH]2)=N/C1=C\\c1cc(Cc2ccc(Cl)cc2)c(C)[nH]1.Cl", "test system": "potassium phosphate buffer", "setting": "1.5 h, pH 7.4, room temperature, 100 mM buffer", "solubility": "< 3.13 µM"}
{"SMILES": "COc1ccc(-c2oc3cc(OC)cc(OC)c3c(=O)c2OC)cc1", "assay": "HPLC", "test system": "ethanol:butylene glycol 25:75", "solubility": "6033 ± 13 ppm"}
{"SMILES": "NC(=O)c1cccc2c1O/C(=C\\c1ccc(C(=O)N[C@H]3CN4CCC3CC4)s1)C2=O", "assay": "saturation solubility", "test system": "aqueous buffer", "setting": "24 h, 25 °C", "solubility": "> 1000 µg/mL"}
{"SMILES": "COc1cc(Nc2ncc(F)c(Nc3ccc4c(n3)NC(=O)C(C)(C)O4)n2)cc(OC)c1OC", "test system": "PBS", "setting": "3 h, pH 7.4, 0.1% DMSO", "solubility": "0.8 µM"}
{"SMILES": "Cc1nonc1Cn1nnc2c(N3CC[C@H](O)C3)nc(C(C)(C)C)nc21", "assay": "LYSA", "solubility": "44 ± 2 µg/mL"}
{"SMILES": "CN1C(=O)Cc2ccc(F)c(CCNC[C@H]3CN(c4ccc5c(n4)NC(=O)CO5)C(=O)O3)c21", "test system": "aqueous buffer", "solubility": "90 µM"}
{"SMILES": "CC[C@H](C)[C@@H]1NC(=O)[C@H](CO)NC(=O)[C@H](CC(C)C)NC(=O)[C@H](CC(C)C)N(C)C(=O)[C@@H](Cc2ccc(O)cc2)NC(=O)[C@@H](Cc2ccc(O)cc2)NC(=O)CSC[C@@H](C(=O)O)NC(=O)CNC(=O)[C@@H](C(C)C)NC(=O)[C@H]2CCCN2C(=O)[C@H](C)NC1=O", "test system": "HBSS", "setting": "pH 7.4", "solubility": "708 µM"}
{"SMILES": "CCNC(=O)c1cc(C)ccc1OCCc1cc(F)cc(F)c1", "test system": "PBS", "setting": "30 (unit not given), pH 7.4", "solubility": "50 µM"}
{"SMILES": "CC[C@H](C)[C@H](NC(=O)[C@H](C)NC(=O)[C@H](CCC(=O)O)NC(=O)[C@H](CCC(=O)O)NC(=O)[C@H](CC(C)C)NC(=O)[C@H](CCCCN)NC(=O)[C@H](CCCCN)NC(=O)[C@H](CCSC)NC(=O)[C@H](CCC(=O)O)NC(=O)[C@H](Cc1ccc(O)cc1)NC(=O)[C@H](CCC(=O)O)NC(=O)[C@H](CC(C)C)NC(=O)[C@H](CC(=O)O)NC(=O)[C@H](CC(C)C)NC(=O)[C@H](Cc1ccccc1)NC(=O)[C@@H](NC(=O)[C@@H](NC(=O)[C@H](CC(N)=O)NC(=O)[C@@H](NC(=O)[C@H](CCC(N)=O)NC(=O)[C@H](CC(=O)O)NC(=O)[C@H](CC(C)C)NC(=O)[C@@H](N)CO)[C@@H](C)CC)C(C)C)[C@@H](C)O)C(=O)N[C@@H](CCCCN)C(=O)N[C@@H](CCCCN)C(=O)N[C@@H](CC(C)C)C(=O)N[C@@H](CCC(=O)O)C(=O)N[C@@H](CCC(=O)O)C(=O)N[C@@H](CO)C(=O)N[C@@H](Cc1ccc(O)cc1)C(=O)N[C@H](C(=O)N[C@@H](CC(=O)O)C(=O)N[C@@H](CC(C)C)C(=O)N[C@@H](CCCCN)C(=O)N[C@@H](CCC(=O)O)C(=O)N[C@@H](CC(C)C)C(=O)O)[C@@H](C)CC", "test system": "PBS", "setting": "pH 7.2", "solubility": "1540 ± 115 µM"}
{"SMILES": "Cn1nccc1[C@]1(CNC(=O)c2ccc(F)c(F)c2-c2ccc(C(F)(F)F)cc2)NC(=O)NC1=O", "test system": "water, ethanol, Solutol HS 15", "setting": "24 h, crystalline material", "solubility": "30000 µg/mL"}
{"SMILES": "CCOC(=O)N1C[C@@H](c2cccnc2)N[C@@H](C(CC)CC)C1", "assay": "shake-flask, LC-HRMS", "test system": "aqueous buffer", "setting": "16 h, pH 6.8", "solubility": "> 750 µM"}
{"SMILES": "COc1cccc(C2(C(=O)N3CCC4(CC3)CC(CNS(=O)(=O)N(C)C)CCO4)CCCC2)c1 (stereo not shown)", "setting": "pH 7.4", "solubility": "170 µM"}
{"SMILES": "C#Cc1ccc2c(c1)C(c1ccccn1)=NCc1c(-c3cnco3)ncn1-2", "test system": "DMF", "setting": "24 h, 25 °C, thermodynamic equilibrium", "solubility": "4030 µg/mL"}
{"SMILES": "CCc1cc(C)cc(CC)c1-c1c(OC(=O)C(C)(C)C)n2n(c1=O)CCOCC2", "test system": "PBS", "setting": "pH 7.4, 25 °C, 2% DMSO", "solubility": "357 µM"}
{"SMILES": "O=C(NCCCNc1nc(Nc2cccc(NC(=O)N3CCCC3)c2)ncc1I)c1cccs1", "test system": "Capryol 90", "setting": "24 h, 37 °C", "solubility": "930 ± 50 µg/mL"}
{"SMILES": "O=c1ccn([C@@H]2O[C@H](CO)[C@@H](O)[C@H]2O)c(=S)[nH]1", "test system": "aqueous buffer", "setting": "4 (unit not given), pH 6.8, 37 °C", "solubility": "> 100 µM"}
{"SMILES": "CC[C@H](C)[C@H]1C(=O)N[C@@H](Cc2ccccc2)C(=O)N[C@H](C(=O)O)CSCC(=O)N[C@H](Cc2ccc(O)cc2)C(=O)NCC(=O)N[C@@H](CC(C)C)C(=O)N2CCC[C@H]2C(=O)N[C@@H](CC(C)C)C(=O)N[C@@H](CC(C)C)C(=O)N[C@@H](C)C(=O)N[C@@H](C)C(=O)N1C", "test system": "HBSS", "setting": "pH 7.4", "solubility": "759 µM"}
{"SMILES": "COC1=CC(c2ccc[nH]2)=N/C1=C\\c1cc(-c2ccc(Cl)cc2)c(C)[nH]1.Cl", "test system": "potassium phosphate buffer", "setting": "1.5 h, pH 7.4, room temperature, 100 mM buffer", "solubility": "< 3.13 µM"}
{"SMILES": "COC(=O)OCOc1c2n(ccc1=O)N([C@@H]1c3ccccc3SCc3c1ccc(F)c3F)[C@@H]1COC3(CC3)CN1C2=O", "setting": "pH 7", "solubility": "3 µg/mL"}
{"SMILES": "CC[C@H](C)[C@H](NC(=O)[C@H](CCC(=O)O)NC(=O)[C@H](CCCCN)NC(=O)[C@H](CC(C)C)NC(=O)[C@H](CC(N)=O)NC(=O)[C@@H](NC(=O)[C@H](Cc1ccc(O)cc1)NC(=O)[C@H](CO)NC(=O)[C@H](CCC(=O)O)NC(=O)[C@H](CCC(=O)O)NC(=O)[C@H](CC(C)C)NC(=O)[C@H](CCCCN)NC(=O)[C@H](CCCCN)NC(=O)[C@@H](NC(=O)[C@H](C)NC(=O)[C@H](CCC(=O)O)NC(=O)[C@H](CCC(=O)O)NC(=O)[C@H](CC(C)C)NC(=O)[C@H](CCCCN)NC(=O)[C@H](CCCCN)NC(=O)[C@H](CCSC)NC(=O)[C@H](CCC(=O)O)NC(=O)[C@H](CC(=O)O)NC(=O)[C@H](CCC(=O)O)NC(=O)[C@H](CC(C)C)NC(=O)[C@H](CC(=O)O)NC(=O)[C@H](CC(C)C)NC(=O)[C@H](Cc1ccccc1)NC(=O)[C@@H](NC(=O)[C@@H](NC(=O)[C@H](CC(N)=O)NC(=O)[C@@H](NC(=O)[C@H](Cc1ccc(O)cc1)NC(=O)[C@H](CC(=O)O)NC(=O)[C@H](CC(C)C)NC(=O)[C@@H](N)CO)[C@@H](C)CC)C(C)C)[C@@H](C)O)[C@@H](C)CC)[C@@H](C)CC)C(=O)O", "test system": "water", "solubility": "10700 ± 454 µM"}
{"SMILES": "COC1=CC(c2ccc[nH]2)=N/C1=C\\c1[nH]c(C)cc1-c1ccc(OC(F)(F)F)cc1.Cl", "test system": "potassium phosphate buffer", "setting": "1.5 h, pH 7.4, room temperature, 100 mM buffer", "solubility": "< 3.13 µM"}
{"note": "Repeated from above:"}
{"SMILES": "COc1ccc(-c2oc3cc(OC)cc(OC)c3c(=O)c2OC)cc1", "assay": "HPLC", "test system": "ethanol:butylene glycol 25:75", "solubility": "6033 ± 13 ppm"}
{"SMILES": "Cc1nonc1Cn1nnc2c(N3CC[C@H](O)C3)nc(C(C)(C)C)nc21", "assay": "LYSA", "solubility": "44 ± 2 µg/mL"}
{"SMILES": "CN1C(=O)Cc2ccc(F)c(CCNC[C@H]3CN(c4ccc5c(n4)NC(=O)CO5)C(=O)O3)c21", "test system": "aqueous buffer", "solubility": "90 µM"}
{"SMILES": "O=C(Nc1ccc(OC(F)(F)F)cc1)NC1CCC(Oc2ccc(C(=O)[O-])cc2)CC1.[Na+] (stereo not shown)", "test system": "simulated gastric fluid", "setting": "pH 1.0, 37 °C, equilibrium", "solubility": "0.047 ± 0.003 µg/mL"}
